Measured values pooled from the literature.
Each line is one published result; not all experiments were run side by side. Several values in a cell are separate wells, animals, samples, runs or records. ± gives the spread as reported.
Sequence of UniProt P51575 (whole entry, unmodified, looked up): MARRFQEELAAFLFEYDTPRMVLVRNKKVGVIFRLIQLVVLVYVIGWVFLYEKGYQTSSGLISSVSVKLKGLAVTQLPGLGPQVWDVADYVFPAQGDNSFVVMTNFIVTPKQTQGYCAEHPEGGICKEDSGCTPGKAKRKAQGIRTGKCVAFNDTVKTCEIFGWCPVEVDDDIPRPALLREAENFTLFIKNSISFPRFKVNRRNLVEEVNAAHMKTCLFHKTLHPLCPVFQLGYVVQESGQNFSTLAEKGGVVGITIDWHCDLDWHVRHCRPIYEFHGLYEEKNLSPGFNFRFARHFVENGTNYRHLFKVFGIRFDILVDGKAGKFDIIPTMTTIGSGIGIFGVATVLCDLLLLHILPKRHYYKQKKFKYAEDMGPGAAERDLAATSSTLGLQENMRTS
Sequence of UniProt P03146 (1-149, looked up): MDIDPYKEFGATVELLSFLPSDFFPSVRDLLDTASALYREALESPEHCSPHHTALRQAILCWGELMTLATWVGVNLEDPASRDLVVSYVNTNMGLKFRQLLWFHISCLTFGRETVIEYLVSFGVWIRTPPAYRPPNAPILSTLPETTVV
Sequence of UniProt P05164 (whole entry, looked up): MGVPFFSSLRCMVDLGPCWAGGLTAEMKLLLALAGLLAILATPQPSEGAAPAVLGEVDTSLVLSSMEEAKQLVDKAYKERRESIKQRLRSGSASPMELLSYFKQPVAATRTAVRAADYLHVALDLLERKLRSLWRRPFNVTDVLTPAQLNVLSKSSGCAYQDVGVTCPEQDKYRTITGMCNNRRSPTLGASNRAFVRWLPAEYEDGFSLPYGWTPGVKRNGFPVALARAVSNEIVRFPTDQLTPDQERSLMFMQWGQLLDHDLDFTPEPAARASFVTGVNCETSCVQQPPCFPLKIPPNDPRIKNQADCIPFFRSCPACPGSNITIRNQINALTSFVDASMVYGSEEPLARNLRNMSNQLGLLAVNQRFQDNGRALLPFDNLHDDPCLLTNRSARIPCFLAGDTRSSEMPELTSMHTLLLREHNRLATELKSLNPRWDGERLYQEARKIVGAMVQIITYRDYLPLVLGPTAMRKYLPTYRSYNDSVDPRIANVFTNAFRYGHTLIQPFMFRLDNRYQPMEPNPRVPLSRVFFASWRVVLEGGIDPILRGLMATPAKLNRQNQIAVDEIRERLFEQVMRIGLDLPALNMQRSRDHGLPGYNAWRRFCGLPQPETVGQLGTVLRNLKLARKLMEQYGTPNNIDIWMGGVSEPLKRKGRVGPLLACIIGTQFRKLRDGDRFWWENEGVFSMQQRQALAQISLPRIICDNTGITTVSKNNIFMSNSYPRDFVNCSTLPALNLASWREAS
Sequence of UniProt P02769 (whole entry, looked up): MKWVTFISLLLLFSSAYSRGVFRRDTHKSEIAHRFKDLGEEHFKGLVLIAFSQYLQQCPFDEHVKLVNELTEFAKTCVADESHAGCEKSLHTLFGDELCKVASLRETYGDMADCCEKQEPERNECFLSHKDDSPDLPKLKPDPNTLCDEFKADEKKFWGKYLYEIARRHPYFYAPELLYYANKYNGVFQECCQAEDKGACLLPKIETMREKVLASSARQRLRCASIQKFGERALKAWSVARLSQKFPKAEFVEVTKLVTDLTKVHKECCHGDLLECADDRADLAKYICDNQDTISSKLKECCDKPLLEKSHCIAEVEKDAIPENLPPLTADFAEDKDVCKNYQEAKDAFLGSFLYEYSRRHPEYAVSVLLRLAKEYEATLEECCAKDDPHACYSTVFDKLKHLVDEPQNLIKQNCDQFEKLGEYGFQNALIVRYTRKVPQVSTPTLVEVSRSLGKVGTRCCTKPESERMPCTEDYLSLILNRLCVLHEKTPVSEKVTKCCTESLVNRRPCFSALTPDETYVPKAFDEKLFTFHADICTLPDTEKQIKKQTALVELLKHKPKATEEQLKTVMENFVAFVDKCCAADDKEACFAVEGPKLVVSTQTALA
Sequence of UniProt P31749 (whole entry, looked up): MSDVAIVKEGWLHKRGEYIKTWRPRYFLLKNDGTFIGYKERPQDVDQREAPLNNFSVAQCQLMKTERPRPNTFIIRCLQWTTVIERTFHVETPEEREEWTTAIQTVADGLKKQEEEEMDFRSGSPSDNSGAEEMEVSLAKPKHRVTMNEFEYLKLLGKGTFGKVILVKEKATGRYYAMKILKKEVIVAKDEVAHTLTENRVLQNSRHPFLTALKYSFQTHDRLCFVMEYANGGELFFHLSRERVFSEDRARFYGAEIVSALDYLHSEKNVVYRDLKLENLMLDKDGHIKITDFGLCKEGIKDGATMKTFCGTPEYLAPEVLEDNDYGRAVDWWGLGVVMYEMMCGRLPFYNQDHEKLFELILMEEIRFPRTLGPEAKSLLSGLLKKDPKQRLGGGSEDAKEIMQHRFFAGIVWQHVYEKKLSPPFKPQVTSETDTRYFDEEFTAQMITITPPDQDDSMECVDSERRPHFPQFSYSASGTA
Sequence of UniProt Q6PL18 (whole entry, unmodified, looked up): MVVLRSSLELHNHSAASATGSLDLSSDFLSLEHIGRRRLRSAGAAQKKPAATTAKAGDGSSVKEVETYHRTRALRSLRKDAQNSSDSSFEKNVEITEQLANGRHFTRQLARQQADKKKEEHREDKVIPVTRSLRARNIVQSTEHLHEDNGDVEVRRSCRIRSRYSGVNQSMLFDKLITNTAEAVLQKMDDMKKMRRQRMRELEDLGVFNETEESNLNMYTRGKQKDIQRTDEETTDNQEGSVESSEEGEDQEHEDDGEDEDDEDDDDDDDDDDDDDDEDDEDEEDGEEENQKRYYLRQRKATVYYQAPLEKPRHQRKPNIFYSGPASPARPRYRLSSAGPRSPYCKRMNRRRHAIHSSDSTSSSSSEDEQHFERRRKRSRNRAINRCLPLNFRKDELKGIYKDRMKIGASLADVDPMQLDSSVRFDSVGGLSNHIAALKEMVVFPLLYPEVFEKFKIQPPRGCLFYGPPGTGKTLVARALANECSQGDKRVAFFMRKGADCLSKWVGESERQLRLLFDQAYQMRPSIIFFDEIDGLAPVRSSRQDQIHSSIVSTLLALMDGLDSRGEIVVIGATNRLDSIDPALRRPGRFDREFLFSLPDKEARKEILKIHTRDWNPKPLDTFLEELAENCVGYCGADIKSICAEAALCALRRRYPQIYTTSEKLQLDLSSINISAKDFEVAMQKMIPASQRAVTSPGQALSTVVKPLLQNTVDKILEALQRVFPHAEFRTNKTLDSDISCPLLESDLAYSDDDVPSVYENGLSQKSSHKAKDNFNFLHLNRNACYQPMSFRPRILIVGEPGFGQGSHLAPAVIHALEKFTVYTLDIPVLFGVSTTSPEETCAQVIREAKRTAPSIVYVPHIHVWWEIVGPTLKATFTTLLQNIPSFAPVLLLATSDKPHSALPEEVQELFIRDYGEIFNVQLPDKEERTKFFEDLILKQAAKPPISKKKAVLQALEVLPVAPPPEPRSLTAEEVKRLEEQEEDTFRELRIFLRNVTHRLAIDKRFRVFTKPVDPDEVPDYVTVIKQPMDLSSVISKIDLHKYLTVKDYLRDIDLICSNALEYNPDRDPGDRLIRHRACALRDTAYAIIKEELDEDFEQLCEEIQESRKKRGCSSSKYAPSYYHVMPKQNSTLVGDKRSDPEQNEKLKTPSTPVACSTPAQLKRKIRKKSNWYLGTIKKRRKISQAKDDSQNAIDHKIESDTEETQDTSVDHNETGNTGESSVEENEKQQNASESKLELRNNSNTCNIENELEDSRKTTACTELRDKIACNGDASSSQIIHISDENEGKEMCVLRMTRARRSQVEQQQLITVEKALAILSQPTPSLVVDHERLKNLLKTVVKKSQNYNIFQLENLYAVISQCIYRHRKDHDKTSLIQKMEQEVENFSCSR

SMILES | tested on | test | test system | setting | how to read | measurement | value
CC[C@H](C)[C@@H]1NC(=O)[C@H](Cc2ccc(O)cc2)NC(=O)CSC[C@@H](C(N)=O)NC(=O)CNC(=O)[C@H](Cc2c[nH]cn2)NC(=O)[C@H](CCCNC(=N)N)NC(=O)[C@H](CC(N)=O)NC(=O)[C@@H]2CCCN2C(=O)[C@H](Cc2ccccc2)NC(=O)[C@H]([C@@H](C)O)NC(=O)CNC(=O)[C@H](CC(C)C)NC(=O)[C@@H]2CCCN2C(=O)[C@H]([C@@H](C)O)NC(=O)[C@H](CCCCN)NC1=O | Vacuolar protein sorting-associated protein 29 (VPS29, Homo sapiens, UniProt Q9UBQ0) | binding, ITC | – | 25 °C, protein alone | – | -TΔS | 3.2 ± 1 kcal/mol
CC(C)OCCn1c(=S)[nH]c(=O)c2[nH]ccc21 | Myeloperoxidase (MPO, Homo sapiens, UniProt P05164) | H2O2 consumption, inhibitor, H2O2 electrode | – | 10 µM, 0.1 s | – | H2O2 concentration | -1.34 µM
COc1cc(Cl)c(C(=O)N[C@@H](CN[C@H]2CC[C@@H](N)CC2)Cc2ccc(C#N)cc2)cc1-c1ccc(CN[C@H](C)c2ccc(C)cc2)o1 | ATPase family AAA domain-containing protein 2, bromodomain (ATAD2, Homo sapiens, UniProt Q6PL18) | thermal shift | – | 25 µM, GST-tagged protein | – | ΔTm | 4.5 °C
Cc1ncsc1-c1ccc(CNC(=O)[C@@H]2C[C@@H](O)CN2C(=O)[C@@H](NC(=O)C2(F)CC2)C(C)(C)C)c(OCCOc2ccc(CN3CCN(c4cc(-c5ccccc5O)nnc4N)CC3)cc2)c1 | SMARCA4 (Homo sapiens, UniProt P51532) | ternary complex binding, AlphaLISA competition | HEK293 cell lysate | with: full-length VCB | relative to: binary IC50 over ternary IC50 | cooperativity factor alpha | 0.9
NCC[C@H](O)C(=O)N[C@@H]1C[C@H](N)[C@@H](O[C@H]2O[C@H](CN)[C@@H](O)[C@H](O)[C@H]2O)[C@H](O)[C@H]1O[C@H]1O[C@H](CO)[C@@H](O)[C@H](N)[C@H]1O | Albumin (ALB, Bos taurus, UniProt P02769) | tryptophan fluorescence quenching | – | 10 to 60 µM, 298 K | – | Stern-Volmer quenching constant | 1.99 10³ M⁻¹
COc1cccc2c1C(=O)c1c(O)c3c(c(O)c1C2=O)C[C@@](O)(C(=O)CO)C[C@@H]3O[C@H]1C[C@H](NC(=O)[C@@H]2CCCN2C(=O)CN)[C@H](O)[C@H](C)O1 | – | – | healthy mouse, plasma | intravenous, 94.4 mg/kg PhAc-ALGP-Dox | – | AUC | 1.04 µM·h
CN(CCC#N)C(=O)c1ccc(C2CCCCC2)cc1 | – | hepatocyte stability | cryopreserved rat hepatocytes | 1 µM | – | hepatic clearance | 47 mL/min/kg
Nc1ncnc2c1ncn2[C@@H]1O[C@H](COP(=O)(O)CP(=O)(O)OP(=O)(O)O)[C@@H](O)[C@H]1O | P2X purinoceptor 1 (P2RX1, Homo sapiens, UniProt P51575, L218T) | calcium influx | – | 1 µM | relative to: ionomycin response | calcium influx | 91.1% and 100% and 94.7%
O=C1NC(=O)/C(=C/c2ccc(-c3ccc(F)cc3O)o2)S1 | AKT1 (Homo sapiens, UniProt P31749) | enzyme activity | – | 10 µM | – | remaining activity | 97%
COc1cc(Nc2ncc3c(n2)-c2ccc(Cl)cc2C(c2c(F)cccc2OC)=NC3)ccc1C(=O)O | STK22D | kinase activity | – | 1 µM | – | remaining activity | 108%
CC[C@H](C)[C@H](NC(=O)[C@H](Cc1ccccc1)NC(=O)[C@H](CCC(=O)O)NC(=O)[C@H](CCCNC(=N)N)NC(=O)[C@H](C)NC(=O)[C@H](C)NC(=O)[C@H](CCC(N)=O)NC(=O)[C@H](CCC(=O)O)NC(=O)[C@H](CCC(=O)O)NC(=O)[C@H](CC(C)C)NC(=O)[C@H](Cc1ccc(O)cc1)NC(=O)[C@H](CO)NC(=O)[C@H](CO)NC(=O)[C@@H](NC(=O)[C@H](CC(=O)O)NC(=O)[C@H](CO)NC(=O)[C@@H](NC(=O)[C@H](Cc1ccccc1)NC(=O)[C@@H](NC(=O)CNC(=O)[C@H](CCC(=O)O)NC(=O)[C@H](C)NC(=O)CCc1cnc[nH]1)[C@@H](C)O)[C@@H](C)O)C(C)C)C(=O)N[C@@H](C)C(=O)N[C@@H](Cc1c[nH]c2ccccc12)C(=O)N[C@@H](CC(C)C)C(=O)N[C@H](C(=O)N[C@@H](CCCNC(=N)N)C(=O)NCC(=O)N[C@@H](CCCNC(=N)N)C(=O)N[C@@H](CCCCNC(=O)COCCOCCNC(=O)COCCOCCNC(=O)CC[C@H](NC(=O)CCCCCCCCCCCCCCCCC(=O)O)C(=O)O)C(=O)NCC(=O)NCC(=O)N[C@@H](CO)C(=O)N[C@@H](CCCCNc1c(NCCCCCN(O)C(=O)CCC(=O)NCCCCCN(O)C(=O)CCC(=O)NCCCCCN(O)C(C)=O)c(=O)c1=O)C(=O)NCC(=O)NCC(=O)N[C@@H](CO)C(=O)N[C@@H](CCCCNc1c(NCCCCCN(O)C(=O)CCC(=O)NCCCCCN(O)C(=O)CCC(=O)NCCCCCN(O)C(C)=O)c(=O)c1=O)C(=O)NCC(=O)NCC(=O)N[C@@H](CO)C(=O)N[C@@H](CCCCNc1c(NCCCCCN(O)C(=O)CCC(=O)NCCCCCN(O)C(=O)CCC(=O)NCCCCCN(O)C(C)=O)c(=O)c1=O)C(=O)O)C(C)C | GLP1R (Homo sapiens, UniProt P43220) | agonist, CRE luciferase reporter | BHK cells | metal-free DFO conjugate, with: 0% HSA | relative to: parent peptide | fold potency loss | 6.8
NC(=O)CCNC(=O)c1ccc([C@H]2[C@@H](F)[C@@H](F)C[C@@H](F)[C@H]2F)cc1 | – | liver microsome stability | dog liver microsomes | 1 µM | – | hepatic clearance | 7.3 mL/min/kg
O=C(Nc1cc(F)c(F)c(F)c1)c1ccc(F)c(S(=O)(=O)NCc2cccc(B(O)O)c2)c1 | Capsid protein, residues 1-149 (C, Hepatitis B virus genotype D subtype ayw, UniProt P03146) | capsid assembly, size exclusion chromatography | – | 10 µM, overnight, with: 5 µM Cp149, 150 mM NaCl | – | capsid to dimer ratio | 0.36

For quick reference, copied from above:
SMILES | tested on | test | test system | setting | how to read | measurement | value
O=C(Nc1cc(F)c(F)c(F)c1)c1ccc(F)c(S(=O)(=O)NCc2cccc(B(O)O)c2)c1 | Capsid protein, residues 1-149 (C, Hepatitis B virus genotype D subtype ayw, UniProt P03146) | capsid assembly, size exclusion chromatography | – | 10 µM, overnight, with: 5 µM Cp149, 150 mM NaCl | – | capsid to dimer ratio | 0.36
